Results pooled from the literature.
± marks the error that the study gave.
lasR: Transcriptional activator protein LasR (lasR, Pseudomonas aeruginosa, UniProt P25084)

COP(=O)(O)Oc1ccc([N+](=O)[O-])cc1
relative catalytic efficiency (Alkaline phosphatase PafA (pafA, Elizabethkingia meningoseptica, UniProt Q9KJX5, R164A); Chryseobacterium meningosepticum; pH 8.0; relative to: wild type over mutant kcat/KM): 1.2

CCN(Cc1ccccc1)C(=O)CCc1nc(CN2CCN(C(=O)Cc3ccc(OC)c(OC)c3)CC2)no1
V1/2 of activation (Scn10a (Rattus norvegicus, UniProt Q62968); whole-cell patch clamp; rat DRG neurons; 300 nM): -20 ± 1.84 mV

C=C(NC(=O)C(=C)NC(=O)c1csc(C2=NC3c4csc(n4)C4NC(=O)c5csc(n5)C(C(C)(O)C(C)O)NC(=O)C5CSC(=N5)C(=CC)NC(=O)C(C(C)O)NC(=O)c5csc(n5)C3(CC2)NC(=O)C(C)NC(=O)C(=C)NC(=O)C(C(C)CC)NC2C=Cc3c(C(C)O)cc(nc3C2O)C(=O)OC4C)n1)C(N)=O (stereo not shown)
IC50 fold change (PSMB5 (Homo sapiens, UniProt P28074); chymotrypsin-like activity, inhibitor; with: Suc-LLVY-AMC; relative to: thiostrepton A): ≤ 6 fold

CC(C)P(=S)(NP(=[Se])(C(C)C)C(C)C)C(C)C
ΔG of binding (Alpha-amylase (Bacillus subtilis, UniProt P00691); fluorescence quenching; concentration not given, pH 6.8, 304 K): -4.23 kcal/mol

CN(C)C(=O)C(NC(=O)c1ccccc1-c1ccc(C(F)(F)F)cc1)c1cccc(C(F)(F)F)c1 (stereo not shown)
dissociation rate constant (NKG2-D type II integral membrane protein (KLRK1, Homo sapiens, UniProt P26718); surface plasmon resonance): 0.000567 s⁻¹

Cn1cc(-c2cccc(CN3CCC4(CC3)COc3c4ccc4c3CN([C@H]3CCC(=O)NC3=O)C4=O)c2)cn1
Dmax (CSNK1A1 (Homo sapiens, UniProt P48729); degrader, HiBiT; HEK293; 6 h): < 20%

CCCCCc1cn(-c2cccc(C(=O)N[C@H]3CCOC3=O)c2)nn1
activation (lasR; reporter gene, agonist; Escherichia coli DH5α pJN105L/pSC11; 10 µM; relative to: OdDHL 100 µM): 0%

COc1ccc(NC(=O)Cn2c(=O)c3ccccc3n(CC(=O)Nc3cc([125I])c(OC)cc3OC)c2=O)cc1
kidney binding (Sphingosine 1-phosphate receptor 2 (Rattus norvegicus, UniProt P47752); in vitro autoradiography; Sprague-Dawley rat, STZ diabetic, kidney sections; dose not given): 104 PSL/mm²

O=[N+]([O-])c1ccc(OP(=O)(O)O)cc1
relative catalytic efficiency (Alkaline phosphatase PafA (pafA, Elizabethkingia meningoseptica, UniProt Q9KJX5, T79S); Chryseobacterium meningosepticum; pH 8.0; relative to: wild type over mutant kcat/KM): 2.5

CCCCCCc1cn(-c2ccc(C(=O)N[C@H]3CCOC3=O)cc2)nn1
activation (lasR; reporter gene, agonist; Escherichia coli DH5α pJN105L/pSC11; 10 µM; relative to: OdDHL 100 µM): 0%

CC(=O)N[C@@H](Cc1c[nH]c2ccccc12)C(=O)N[C@@H](CCC(=O)O)C(=O)N[C@@H](Cc1c[nH]cn1)C(=O)N[C@@H](CC(=O)O)C(=O)Nc1ccc2c(C)cc(=O)oc2c1
Vmax (Caspase-6 (CASP6, Homo sapiens, UniProt P55212); substrate cleavage, substrate, fluorogenic AMC release; enzyme 0.25 activity units/µL): 209 ± 17.5 RFU/min

CN(C)C(=O)[C@H]1NC(=O)c2cnccc2-c2ccc(cc2)C(F)(F)CCCC(F)(F)c2cccc1c2
maximum inhibition (NKG2-D type II integral membrane protein, with MICA (KLRK1, Homo sapiens, UniProt P26718); ligand binding, inhibitor, TR-FRET; HEK293 expressing NKG2D and DAP10; with: MICA-Alexa647; relative to: positive control): 99%

CCCCC/C=C\C/C=C\C/C=C\C/C=C\CCCC(=O)NC(CO)C(=O)O (stereo in doubt)
deactivation time constant ratio (Voltage-gated potassium channel, KQT; KCNQ2(Kv7.2)/KCNQ3(Kv7.3) (KCNQ3/KCNQ2, Homo sapiens, UniProt O43525+O43526); two-electrode voltage clamp; Xenopus oocytes; 10 µM, at -100 mV, 100 mM K+; relative to: compound over control): 1.45 ± 0.11

CN1C(CCc2ccccc2)CCC1CCc1ccccc1 (stereo not shown)
maximal inhibition (Slc18a2 (Rattus norvegicus, UniProt Q01827); binding; rat whole brain vesicles; with: [3H]dihydrotetrabenazine): 97 ± 2%

Cc1cc(N)nc(CC2CNCC2OCCNCC(F)(F)C2CCCCN2)c1 (stereo not shown)
selectivity ratio (Nos2 (Mus musculus, UniProt P29477); hemoglobin capture; relative to: Ki iNOS over Ki nNOS): 170

CC(=O)NC(Cc1ccc(Br)c(Cl)c1)C(=O)N[C@@H](C)C(=O)N1CCC[C@H]1C(=O)N1CCC[C@H]1C(=O)N[C@@H](CCC(=O)O)C(=O)N[C@@H](Cc1c[nH]cn1)C(=O)N[C@@H](CO)C(=O)N[C@H](C(=O)N[C@@H](C)C(N)=O)[C@@H](C)OP(=O)(O)O (stereo partly shown)
inhibition (RPS6KB1 (Homo sapiens, UniProt P23443); enzyme activity, inhibitor; 10 µM): 0.29%

CC[C@H](C)[C@H](NC(=O)[C@@H]1CCCN1C(=O)[C@H](Cc1c[nH]cn1)NC(=O)[C@@H](NC(=O)[C@H](Cc1ccc(O)cc1)NC(=O)[C@@H](NC(=O)[C@H](CCCNC(=N)N)NC(=O)CNC)C(C)C)[C@@H](C)CC)C(=O)O
Emax (Agtr1 (Rattus norvegicus, UniProt P25095); intracellular calcium, agonist; HEK293 cells; 2 min): 41 ± 2%

C[C@@]1(O)CC[C@H]2[C@H](CC[C@@H]3[C@@H]2CC[C@]2(C)[C@@H](C(=O)Cn4cccn4)CC[C@@H]32)C1
PKA activation (Membrane progestin receptor delta (Paqr6, Mus musculus, UniProt Q6TCG5); pPKA/PKA immunoblot; MDA-MB-231 expressing Paqr6-GFP; 3 nM, 20 min; relative to: control): 96.9 ± 3.98%

CN(C)CC#Cc1cccc(C(F)(F)F)c1
STD NMR signal (Amyloid-beta precursor protein, amyloid-beta 1-40 oligomers (APP, Homo sapiens, UniProt P05067); binding, STD NMR; highest STD): 6.02%

CC[C@H](C)[C@H](NC(=O)[C@H](Cc1c[nH]cn1)NC(=O)[C@H](CCCCNC(=O)[C@@H](NC(=O)[C@H](CCCCN)NC(=O)[C@H](Cc1ccccc1)NC(=O)[C@H](CCCCNC(=O)[C@H](CC(C)C)NC(=O)[C@@H]1CCCN1C(=O)[C@H](CCCCN)NC(=O)c1ccc(O[C@@H]2O[C@H](CO)[C@H](O)[C@H](O)[C@H]2O)cc1)NC(=O)[C@H](CC(C)C)NC(=O)[C@@H]1CCCN1C(=O)[C@H](CCCCN)NC(=O)c1ccc(O[C@@H]2O[C@H](CO)[C@H](O)[C@H](O)[C@H]2O)cc1)[C@@H](C)CC)NC(=O)[C@@H](NC(=O)[C@H](CCCCN)NC(=O)[C@H](Cc1ccccc1)NC(=O)[C@H](CCCCNC(=O)[C@H](CC(C)C)NC(=O)[C@@H]1CCCN1C(=O)[C@H](CCCCN)NC(=O)c1ccc(O[C@@H]2O[C@H](CO)[C@H](O)[C@H](O)[C@H]2O)cc1)NC(=O)[C@H](CC(C)C)NC(=O)[C@@H]1CCCN1C(=O)[C@H](CCCCN)NC(=O)c1ccc(O[C@@H]2O[C@H](CO)[C@H](O)[C@H](O)[C@H]2O)cc1)[C@@H](C)CC)C(N)=O
binding stoichiometry (lecA (Pseudomonas aeruginosa, UniProt Q05097); ITC; concentration not given, pH 7.5, 25 °C): 4.2 ± 0.6

CCCC[C@H](NC(=O)[C@H](Cc1ccccc1)NC(=O)CNC(=O)[C@@H](C)NC(=O)[C@@H](N)Cc1ccc(O)cc1)C(=O)N1CCC[C@H]1C(=O)N[C@@H](CC(C)C)C(=O)N[C@@H](CO[C@@H]1O[C@H](CO)[C@@H](O)[C@H](O)[C@H]1O)C(=O)N[C@@H](Cc1c[nH]c2ccccc12)C(=O)NCc1cc(C(F)(F)F)cc(C(F)(F)F)c1
Emax (Oprd1 (Mus musculus, UniProt P32300); smooth muscle contraction inhibition, agonist; mouse vas deferens; relative to: DPDPE): 100%

CC(C)C[C@H](NC=O)C(=O)N[C@@H](C)C(=O)N[C@@H](C)C(=O)N[C@@H](CC(=O)O)C(=O)N[C@@H](CC(C)C)C(=O)N[C@@H](CC(C)C)C(=O)N[C@@H](C)C(=O)N[C@@H](C)C(=O)N[C@@H](CC(C)C)C(=O)NCC(=O)N[C@@H](CC(=O)O)C(=O)N[C@@H](CC(C)C)C(=O)N[C@@H](CC(C)C)C(=O)N[C@@H](CCCCN)C(=O)N[C@@H](Cc1c[nH]c2ccccc12)C(=O)N[C@@H](CC(C)C)C(=O)N[C@@H](CC(C)C)C(=O)N[C@@H](CC(=O)O)C(=O)N[C@@H](C)C(=O)N[C@@H](CC(C)C)C(=O)N[C@@H](C)C(=O)N[C@@H](CCCCN)C(=O)N[C@@H](CC(C)C)C(=O)N[C@@H](C)C(=O)N[C@@H](CCCCN)C(=O)N[C@@H](CCCCN)C(=O)O (racemic)
binding free energy (POPC membrane; membrane binding, stopped-flow FRET; mole fraction units, room temperature): -5.7 kcal/mol

A few entries again:
COP(=O)(O)Oc1ccc([N+](=O)[O-])cc1
relative catalytic efficiency (Alkaline phosphatase PafA (pafA, Elizabethkingia meningoseptica, UniProt Q9KJX5, R164A); Chryseobacterium meningosepticum; pH 8.0; relative to: wild type over mutant kcat/KM): 1.2
